{"data": "Results gathered from unrelated publications", "note": "Numbered parts are unrelated; each lists some results of a single study. Several values in a cell are separate wells, animals, samples, runs or records."}
{"data": "Sample 1", "target": "Calcium/calmodulin-dependent protein kinase type II subunit alpha (CAMK2A, Homo sapiens, UniProt Q9UQM7)", "observed": "enzyme activity", "mode": "inhibitor", "tested at": "10 µM", "chain of UniProt Q9UQM7 (whole entry, looked up)": "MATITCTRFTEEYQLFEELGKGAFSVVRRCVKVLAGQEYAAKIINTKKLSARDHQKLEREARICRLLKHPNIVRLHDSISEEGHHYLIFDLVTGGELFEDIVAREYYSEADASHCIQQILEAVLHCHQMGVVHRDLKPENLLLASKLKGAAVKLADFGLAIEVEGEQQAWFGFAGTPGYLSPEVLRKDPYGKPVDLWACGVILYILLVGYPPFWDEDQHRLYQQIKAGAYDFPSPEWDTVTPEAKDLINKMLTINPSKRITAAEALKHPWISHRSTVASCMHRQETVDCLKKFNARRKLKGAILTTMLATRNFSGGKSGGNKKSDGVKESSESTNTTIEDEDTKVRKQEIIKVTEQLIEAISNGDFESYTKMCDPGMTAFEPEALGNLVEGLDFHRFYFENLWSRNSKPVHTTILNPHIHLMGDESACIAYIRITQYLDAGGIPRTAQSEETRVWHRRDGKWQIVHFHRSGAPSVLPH"}
{"SMILES": "Cn1cnc2c(ncn2[C@@H]2O[C@H](CO)[C@@H](O)[C@H]2O)c1=O", "inhibition [%]": -3}
{"SMILES": "COc1ccc(/C=C\\c2cc(OC)c(OC)c(OC)c2)cc1O", "inhibition [%]": -24}
{"SMILES": "C#C[C@]1(O)CC[C@H]2[C@@H]3CCc4cc(OC5CCCC5)ccc4[C@H]3CC[C@@]21C", "inhibition [%]": 0}
{"SMILES": "CC(C)c1ccc(C(=O)O)cc1", "inhibition [%]": -15}
{"SMILES": "CCCNS(=O)(=O)Nc1ncnc(OCCOc2ncc(Br)cn2)c1-c1ccc(Br)cc1", "inhibition [%]": -18}
{"data": "Sample 2", "target": "DNA polymerase theta, ATPase domain (POLQ, Homo sapiens, UniProt O75417)", "observed": "enzyme activity", "mode": "inhibitor", "tested at": "77 µM", "chain of UniProt O75417 (whole entry, unmodified, looked up)": "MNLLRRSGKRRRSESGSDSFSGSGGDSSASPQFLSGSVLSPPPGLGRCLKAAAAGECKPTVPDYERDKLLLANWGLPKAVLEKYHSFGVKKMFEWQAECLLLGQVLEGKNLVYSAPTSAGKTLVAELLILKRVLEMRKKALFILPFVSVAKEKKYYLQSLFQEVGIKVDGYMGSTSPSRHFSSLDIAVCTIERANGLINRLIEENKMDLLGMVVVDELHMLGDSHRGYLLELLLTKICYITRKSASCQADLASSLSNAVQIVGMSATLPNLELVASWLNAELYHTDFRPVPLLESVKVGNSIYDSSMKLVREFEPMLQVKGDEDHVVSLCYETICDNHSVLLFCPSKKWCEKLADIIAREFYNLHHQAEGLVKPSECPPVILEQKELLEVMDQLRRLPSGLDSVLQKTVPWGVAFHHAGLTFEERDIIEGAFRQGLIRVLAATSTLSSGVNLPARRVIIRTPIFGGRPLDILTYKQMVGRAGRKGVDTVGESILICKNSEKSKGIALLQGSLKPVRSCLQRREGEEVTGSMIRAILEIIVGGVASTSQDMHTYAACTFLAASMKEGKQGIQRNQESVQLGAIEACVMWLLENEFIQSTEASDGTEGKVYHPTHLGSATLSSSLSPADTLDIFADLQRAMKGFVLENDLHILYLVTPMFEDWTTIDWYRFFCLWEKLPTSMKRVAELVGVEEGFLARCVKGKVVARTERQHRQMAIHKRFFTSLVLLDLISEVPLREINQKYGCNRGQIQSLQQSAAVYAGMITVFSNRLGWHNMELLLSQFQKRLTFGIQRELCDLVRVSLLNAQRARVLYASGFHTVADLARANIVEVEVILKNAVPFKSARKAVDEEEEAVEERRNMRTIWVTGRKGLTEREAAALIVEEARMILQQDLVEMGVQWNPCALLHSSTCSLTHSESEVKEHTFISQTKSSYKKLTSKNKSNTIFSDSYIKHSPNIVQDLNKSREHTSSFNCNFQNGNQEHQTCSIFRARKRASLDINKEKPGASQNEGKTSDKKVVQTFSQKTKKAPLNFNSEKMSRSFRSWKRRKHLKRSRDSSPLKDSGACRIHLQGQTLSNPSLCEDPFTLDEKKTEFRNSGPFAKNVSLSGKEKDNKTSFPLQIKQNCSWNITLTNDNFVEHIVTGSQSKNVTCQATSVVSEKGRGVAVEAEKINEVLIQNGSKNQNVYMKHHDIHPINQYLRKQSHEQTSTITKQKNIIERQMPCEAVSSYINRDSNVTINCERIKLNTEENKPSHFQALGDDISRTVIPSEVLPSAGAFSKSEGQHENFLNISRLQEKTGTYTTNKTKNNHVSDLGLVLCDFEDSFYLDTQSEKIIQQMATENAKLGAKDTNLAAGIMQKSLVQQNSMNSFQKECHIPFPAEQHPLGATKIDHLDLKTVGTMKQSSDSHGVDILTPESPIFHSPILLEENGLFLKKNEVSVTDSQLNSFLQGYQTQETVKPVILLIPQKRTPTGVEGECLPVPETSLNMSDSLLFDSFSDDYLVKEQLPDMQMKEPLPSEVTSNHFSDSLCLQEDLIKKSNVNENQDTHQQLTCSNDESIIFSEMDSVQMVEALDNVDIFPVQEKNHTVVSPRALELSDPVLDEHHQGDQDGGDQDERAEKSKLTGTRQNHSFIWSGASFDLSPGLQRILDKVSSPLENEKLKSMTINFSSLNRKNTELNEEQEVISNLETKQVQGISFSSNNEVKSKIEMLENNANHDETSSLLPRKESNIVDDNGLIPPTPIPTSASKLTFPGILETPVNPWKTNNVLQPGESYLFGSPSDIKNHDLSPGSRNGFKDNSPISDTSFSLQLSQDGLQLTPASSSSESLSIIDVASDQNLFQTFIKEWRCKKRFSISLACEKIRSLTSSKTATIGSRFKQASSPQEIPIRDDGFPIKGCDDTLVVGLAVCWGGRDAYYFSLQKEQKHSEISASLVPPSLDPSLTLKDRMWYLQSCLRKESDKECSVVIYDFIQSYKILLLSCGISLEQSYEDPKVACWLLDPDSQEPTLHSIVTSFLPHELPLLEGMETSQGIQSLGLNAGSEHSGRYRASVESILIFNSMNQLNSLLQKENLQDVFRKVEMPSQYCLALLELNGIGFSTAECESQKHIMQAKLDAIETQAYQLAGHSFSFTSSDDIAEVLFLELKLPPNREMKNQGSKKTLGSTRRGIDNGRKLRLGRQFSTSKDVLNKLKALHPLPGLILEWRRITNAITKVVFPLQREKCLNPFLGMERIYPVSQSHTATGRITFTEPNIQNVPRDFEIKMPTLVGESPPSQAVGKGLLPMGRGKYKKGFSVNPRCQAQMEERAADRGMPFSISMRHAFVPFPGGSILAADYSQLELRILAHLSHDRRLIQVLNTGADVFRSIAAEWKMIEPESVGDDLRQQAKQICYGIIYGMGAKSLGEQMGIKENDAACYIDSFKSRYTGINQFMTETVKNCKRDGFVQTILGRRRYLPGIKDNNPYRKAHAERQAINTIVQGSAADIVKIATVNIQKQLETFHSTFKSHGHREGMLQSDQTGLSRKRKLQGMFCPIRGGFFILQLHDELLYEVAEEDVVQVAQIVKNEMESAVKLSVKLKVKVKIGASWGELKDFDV"}
{"Compound": "CN(C)C(=O)C(CCN1CCC(O)(c2ccc(Cl)cc2)CC1)(c1ccccc1)c1ccccc1", "remaining activity": "105%"}
{"Compound": "Cc1ccc(C(=O)Nc2ccc(S(=O)(=O)O)c3cc(S(=O)(=O)O)cc(S(=O)(=O)O)c23)cc1NC(=O)c1cccc(NC(=O)Nc2cccc(C(=O)Nc3cc(C(=O)Nc4ccc(S(=O)(=O)O)c5cc(S(=O)(=O)O)cc(S(=O)(=O)O)c45)ccc3C)c2)c1", "remaining activity": "6.56%"}
{"Compound": "CC(C)n1c(/C=C/[C@@H](O)C[C@@H](O)CC(=O)O)c(-c2ccc(F)cc2)c2ccccc21", "remaining activity": "98.7%"}
{"Compound": "COc1cccc2c1C(=O)c1c(O)c3c(c(O)c1C2=O)C[C@@](O)(C(=O)CO)C[C@@H]3O[C@H]1C[C@H](N)[C@H](O[C@@H]2CCCCO2)[C@H](C)O1", "remaining activity": "89.6%"}
{"Compound": "Cn1cc(-c2ccc3c(c2)CCN3C(=O)Cc2cccc(C(F)(F)F)c2)c2c(N)ncnc21", "remaining activity": "93.6%"}
{"Compound": "CC[N+](C)(C)Cc1ccccc1Br", "remaining activity": "98.9%"}
{"data": "Sample 3", "target": "Aurora kinase C (AURKC, Homo sapiens, UniProt Q9UQB9)", "observed": "enzyme activity", "mode": "inhibitor", "tested at": "0.5 µM", "baseline": "control", "Residues (Q9UQB9 1-309)": "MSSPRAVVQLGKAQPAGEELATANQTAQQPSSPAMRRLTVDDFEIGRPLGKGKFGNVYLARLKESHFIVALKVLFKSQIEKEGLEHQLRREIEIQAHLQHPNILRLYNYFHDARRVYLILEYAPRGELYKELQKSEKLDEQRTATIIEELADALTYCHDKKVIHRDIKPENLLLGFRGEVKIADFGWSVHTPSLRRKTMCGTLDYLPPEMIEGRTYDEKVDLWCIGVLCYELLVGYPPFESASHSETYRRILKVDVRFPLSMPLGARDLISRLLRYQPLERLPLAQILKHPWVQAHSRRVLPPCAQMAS"}
{"Compound": "O=C(O)/C=C/c1cc(Br)c(Br)c(Br)c1Br", "remaining activity": "90.3%"}
{"Compound": "O=C1NC(=O)/C(=C/c2ccc3c(c2)OC(F)(F)O3)S1", "remaining activity": "98.1%"}
{"Compound": "N#C/C(=C(/N)SC1C=CC=CC1)c1cccc(C(O)c2ccncc2)c1 (centres unmarked)", "remaining activity": "101%"}
{"Compound": "O=c1c(-c2ccc(F)cc2)c(-c2ccncc2)[nH]n1-c1ccc(Cl)cc1", "remaining activity": "100%"}
{"Compound": "FC(F)(F)c1ccc(/C=C/c2nc(COc3ccc(CCCCn4ccnn4)cc3)co2)cc1", "remaining activity": "97.1%"}
{"Compound": "CC(C)n1cnc2c(Nc3cccc(Cl)c3)nc(NCCO)nc21", "remaining activity": "92.1%"}
{"Compound": "NC(=O)c1ccc(-c2nc(-c3ccc4c(c3)OCCO4)c(-c3ccccn3)[nH]2)cc1", "remaining activity": "87.8%"}
{"Compound": "CCN(CC)CCCCN1c2ccccc2Oc2ccc(Cl)cc21", "remaining activity": "99.3%"}
{"Compound": "O=C(c1ccccc1)c1ccc(N2CCOCC2)cc1O", "remaining activity": "102%"}
{"Compound": "O=C1c2ccccc2-c2nc3nnnn3nc21", "remaining activity": "95.4%"}
{"Compound": "CC(C)(C)c1nc2c3cc[nH]c(=O)c3c3cc(F)ccc3c2[nH]1", "remaining activity": "29.2%"}
{"Compound": "NC(=O)c1cccc(-c2cc(Nc3ccc(OC(F)(F)F)cc3)ncn2)c1", "remaining activity": "101%"}
{"Compound": "C[C@@H](N)[C@H]1CC[C@H](C(=O)Nc2ccncc2)CC1", "remaining activity": "94.9%"}
{"Compound": "O=Nc1c(-c2c(O)[nH]c3ccccc23)[nH]c2ccccc12", "remaining activity": "56.4%"}
{"Compound": "Nc1nc(Nc2ccc(S(N)(=O)=O)cc2)nn1C(=S)Nc1c(F)cccc1F", "remaining activity": "16.2%"}
{"Compound": "CNc1cc2c(Nc3cccc(Br)c3)ncnc2cn1", "remaining activity": "85.9%"}
{"Compound": "COc1cc2c(N3CCN(C(=O)Nc4ccc(OC(C)C)cc4)CC3)ncnc2cc1OCCCN1CCCCC1", "remaining activity": "97%"}
{"Compound": "Clc1ccc(Nc2nnc(Cc3ccncc3)c3ccccc23)cc1", "remaining activity": "87%"}
{"Compound": "c1cc(-c2cnn3cc(-c4ccc(OCCN5CCCCC5)cc4)cnc23)ccn1", "remaining activity": "70.4%"}
{"Compound": "N#CC(c1ccnc(NCCc2cccnc2)n1)c1nc2ccccc2s1 (centres unmarked)", "remaining activity": "96%"}
{"Compound": "CCCCc1c(-c2ccc(O)cc2)[nH]c2nccnc12", "remaining activity": "44.9%"}
{"Compound": "CC(C)N(CCC(=O)c1ccc2ccccc2c1)Cc1ccccc1", "remaining activity": "97.5%"}
{"data": "Sample 4", "cell line": "mouse MPNST tumor cells", "method": "high-content immunofluorescence imaging", "item": "nuclear SOX9", "tested at": "10 µM", "time": "12 h", "setting": "mean of 2 replicates", "baseline": "DMSO control", "direction": "higher = more nuclear SOX9"}
{"SMILES": "COC(=O)[C@H](Cc1ccc([N+](=O)[O-])cc1)NC(=O)c1cccc2ccccc12", "nuclear SOX9 intensity": "99.3 % of DMSO"}
{"SMILES": "COc1cc(N)c(Cl)cc1C(=O)NC1CCN(CCCOc2ccc(F)cc2)CC1OC (centres unmarked)", "nuclear SOX9 intensity": "169 % of DMSO and 96 % of DMSO and 179 % of DMSO"}
{"SMILES": "C[C@]12C=CC(=O)C=C1CC[C@@H]1[C@@H]2C(=O)C[C@@]2(C)[C@H]1CC[C@]2(O)C(=O)CO", "nuclear SOX9 intensity": "95.9 % of DMSO"}
{"SMILES": "CNc1nnc(SCc2ccccc2)s1", "nuclear SOX9 intensity": "100 % of DMSO"}
{"SMILES": "Oc1ccc(C2(c3ccccc3F)CCC(F)(F)CC2)cc1", "nuclear SOX9 intensity": "104 % of DMSO"}
{"SMILES": "CCCCc1ncc(/C=C(\\Cc2cccs2)C(=O)O)n1Cc1ccc(C(=O)O)cc1", "nuclear SOX9 intensity": "103 % of DMSO"}
{"SMILES": "CC(C)NCC(O)c1cc(O)cc(O)c1 (centres unmarked)", "nuclear SOX9 intensity": "102 % of DMSO"}
{"SMILES": "Clc1ccccc1C(c1ccccc1)(c1ccccc1)n1ccnc1", "nuclear SOX9 intensity": "92.4 % of DMSO and 102 % of DMSO"}
{"SMILES": "Nc1ccc(S(=O)(=O)Nc2ccc(Cl)nn2)cc1", "nuclear SOX9 intensity": "99 % of DMSO"}
{"SMILES": "CC(=O)NS(=O)(=O)c1ccc(NC(=O)c2ccccc2C(=O)O)cc1", "nuclear SOX9 intensity": "105 % of DMSO"}
{"data": "Further values, each from its own experiment"}
{"Compound": "Cn1cncc1[C@@](O)(COc1ccc(C#N)cc1-c1ccc(OC(F)(F)F)cc1)c1ccc(C#N)cc1", "cell line": "HEK293T", "method": "high-content imaging", "tested at": "10 µM", "time": "12 h", "measurement": "cells with fragmented nuclei", "result": "3.98% and 12.4%"}
{"note": "Excerpt of the above (sample 3):"}
{"Compound": "NC(=O)c1cccc(-c2cc(Nc3ccc(OC(F)(F)F)cc3)ncn2)c1", "remaining activity": "101%"}
{"Compound": "C[C@@H](N)[C@H]1CC[C@H](C(=O)Nc2ccncc2)CC1", "remaining activity": "94.9%"}
{"Compound": "O=Nc1c(-c2c(O)[nH]c3ccccc23)[nH]c2ccccc12", "remaining activity": "56.4%"}
{"Compound": "Nc1nc(Nc2ccc(S(N)(=O)=O)cc2)nn1C(=S)Nc1c(F)cccc1F", "remaining activity": "16.2%"}
{"Compound": "CNc1cc2c(Nc3cccc(Br)c3)ncnc2cn1", "remaining activity": "85.9%"}
{"Compound": "COc1cc2c(N3CCN(C(=O)Nc4ccc(OC(C)C)cc4)CC3)ncnc2cc1OCCCN1CCCCC1", "remaining activity": "97%"}
